Measurements collected from several papers.
Each line is one published result; not all experiments were run side by side. “And” joins repeats or separate records; there may be more than shown.
Cell line: MDCK

SMILES	test	conditions	endpoint	result
COc1cccc(N2C(N)=NC(N)=NC23CCN(C(=O)OC(C)(C)C)CC3)c1	microscopy, altered cell morphology		minimum cytotoxic concentration	≥ 100 µM
NC(=O)c1ncn([C@@H]2O[C@H](CO)[C@@H](O)[C@H]2O)n1	cell morphology		minimum cytotoxic concentration	> 100 µM
Cc1cc(OCc2nnc(SC3CCCC3)n2-c2cccnc2)ccc1-c1ccc(S(C)(=O)=O)cc1		1 to 3 µM	viability	> 80%
O=C(O)C(F)(F)C(F)(F)C(F)(F)C(F)(F)C(F)(F)C(F)(F)C(F)(F)C(F)(F)C(F)(F)C(F)(F)C(F)(F)F		2 µM, 90 min, pH 7.4, receiver 0.4% BSA	Papp A to B	14.3 ×10⁻⁶ cm/s
NC(=O)c1ncn([C@@H]2O[C@H](CO)[C@@H](O)[C@H]2O)n1	microscopy, altered cell morphology		minimum cytotoxic concentration	≥ 20 µM
NC12CC3CC(CC(C3)C1)C2	cell morphology		minimum cytotoxic concentration	> 500 µM
NC(=S)N/N=C/c1ccc(-c2ccc(C(=O)O)c(O)c2)o1	MTT	concentration not given	cytotoxicity	not toxic
NC1=NC2(CCN(C(=O)C3CCC3)CC2)N(c2cccc(Cl)c2)C(N)=N1	microscopy, altered cell morphology		minimum cytotoxic concentration	≥ 20 µM
COc1cc(-c2ccnc3c2c(C)nn3-c2cccc(C(F)(F)F)c2)ccc1O			CC50	48.6 µM and 49 µM
CC(N)C12CC3CC(CC(C3)C1)C2 (centres unmarked)			CC50	> 200 µM
Cc1nn(-c2ccc(Cl)cc2)c2nc(N)c(C#N)c(-c3ccc(O)c(O)c3)c12			CC50	31.9 µM and 20.4 µM
Cl.NC1=NC2(CCCN(Cc3ccccc3)C2)N(c2ccc(Cl)cc2)C(N)=N1 (centres unmarked)	microscopy, altered cell morphology		minimum cytotoxic concentration	100 µM
COc1cc(-c2ccnc3c2c(C)nn3-c2ccc(C(F)(F)F)cc2)ccc1O			CC50	27.8 µM and 25.3 µM
O=C(O)C(F)(F)C(F)(F)C(F)(F)C(F)(F)C(F)(F)C(F)(F)C(F)(F)F		2 µM, 90 min, pH 7.4, receiver 0.4% BSA	Papp A to B	1.5 ×10⁻⁶ cm/s

Some of these lines once more:
SMILES	test	conditions	endpoint	result
Cc1cc(OCc2nnc(SC3CCCC3)n2-c2cccnc2)ccc1-c1ccc(S(C)(=O)=O)cc1		1 to 3 µM	viability	> 80%
